Measured values gathered from unrelated publications.
A part holds a random share of what one study measured. “And” joins repeats or separate records; there may be more than shown.
Sequence of UniProt Q9H0K1 (whole entry, looked up): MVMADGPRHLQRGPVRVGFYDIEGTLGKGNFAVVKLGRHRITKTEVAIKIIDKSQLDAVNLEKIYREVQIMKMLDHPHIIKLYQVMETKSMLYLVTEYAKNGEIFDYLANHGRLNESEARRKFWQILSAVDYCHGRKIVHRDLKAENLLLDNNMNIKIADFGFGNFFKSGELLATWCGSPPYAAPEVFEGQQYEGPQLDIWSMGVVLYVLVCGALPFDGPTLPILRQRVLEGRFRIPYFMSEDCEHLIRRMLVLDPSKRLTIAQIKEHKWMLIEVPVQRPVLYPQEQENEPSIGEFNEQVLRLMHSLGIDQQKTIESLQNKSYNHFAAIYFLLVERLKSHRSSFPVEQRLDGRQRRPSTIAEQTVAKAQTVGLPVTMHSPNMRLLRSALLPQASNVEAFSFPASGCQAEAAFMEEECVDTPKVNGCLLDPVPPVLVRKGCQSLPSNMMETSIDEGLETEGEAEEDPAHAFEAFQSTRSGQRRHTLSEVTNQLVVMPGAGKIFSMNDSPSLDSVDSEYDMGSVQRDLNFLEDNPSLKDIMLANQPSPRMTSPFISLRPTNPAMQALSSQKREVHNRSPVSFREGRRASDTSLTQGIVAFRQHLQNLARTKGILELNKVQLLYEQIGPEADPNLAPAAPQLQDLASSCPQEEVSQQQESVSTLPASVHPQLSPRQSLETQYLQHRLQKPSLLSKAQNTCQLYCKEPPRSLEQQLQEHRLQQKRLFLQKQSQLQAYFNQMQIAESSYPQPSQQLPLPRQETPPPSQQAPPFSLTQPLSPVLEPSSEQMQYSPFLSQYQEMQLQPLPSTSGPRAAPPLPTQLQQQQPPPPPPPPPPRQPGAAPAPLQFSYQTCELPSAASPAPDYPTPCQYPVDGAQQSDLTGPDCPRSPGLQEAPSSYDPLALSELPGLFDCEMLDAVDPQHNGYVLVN
Sequence of UniProt P41240 (whole entry, looked up): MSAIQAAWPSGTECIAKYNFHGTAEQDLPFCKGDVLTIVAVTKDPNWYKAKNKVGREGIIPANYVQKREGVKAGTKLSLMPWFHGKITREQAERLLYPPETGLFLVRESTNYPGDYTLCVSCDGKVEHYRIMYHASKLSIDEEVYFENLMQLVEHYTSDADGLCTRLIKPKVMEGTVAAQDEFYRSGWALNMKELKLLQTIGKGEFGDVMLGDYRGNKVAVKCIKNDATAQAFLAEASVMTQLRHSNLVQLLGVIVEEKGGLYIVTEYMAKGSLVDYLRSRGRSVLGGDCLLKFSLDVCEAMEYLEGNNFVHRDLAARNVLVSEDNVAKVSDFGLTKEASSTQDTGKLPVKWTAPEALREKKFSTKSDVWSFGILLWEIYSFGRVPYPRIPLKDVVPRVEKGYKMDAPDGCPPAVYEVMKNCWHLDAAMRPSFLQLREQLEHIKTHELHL
Sequence of UniProt Q16539 (whole entry, looked up): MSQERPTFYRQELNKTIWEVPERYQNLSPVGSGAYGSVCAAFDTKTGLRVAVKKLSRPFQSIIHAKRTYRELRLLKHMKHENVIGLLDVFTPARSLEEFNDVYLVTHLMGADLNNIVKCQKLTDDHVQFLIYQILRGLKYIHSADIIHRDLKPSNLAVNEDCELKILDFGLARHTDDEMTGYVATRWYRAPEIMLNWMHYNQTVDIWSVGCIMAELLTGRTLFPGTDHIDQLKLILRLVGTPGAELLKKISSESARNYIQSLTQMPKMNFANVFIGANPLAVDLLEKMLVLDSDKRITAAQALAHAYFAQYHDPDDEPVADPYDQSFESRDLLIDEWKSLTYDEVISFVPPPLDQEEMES
Sequence of UniProt P10721 (whole entry, looked up): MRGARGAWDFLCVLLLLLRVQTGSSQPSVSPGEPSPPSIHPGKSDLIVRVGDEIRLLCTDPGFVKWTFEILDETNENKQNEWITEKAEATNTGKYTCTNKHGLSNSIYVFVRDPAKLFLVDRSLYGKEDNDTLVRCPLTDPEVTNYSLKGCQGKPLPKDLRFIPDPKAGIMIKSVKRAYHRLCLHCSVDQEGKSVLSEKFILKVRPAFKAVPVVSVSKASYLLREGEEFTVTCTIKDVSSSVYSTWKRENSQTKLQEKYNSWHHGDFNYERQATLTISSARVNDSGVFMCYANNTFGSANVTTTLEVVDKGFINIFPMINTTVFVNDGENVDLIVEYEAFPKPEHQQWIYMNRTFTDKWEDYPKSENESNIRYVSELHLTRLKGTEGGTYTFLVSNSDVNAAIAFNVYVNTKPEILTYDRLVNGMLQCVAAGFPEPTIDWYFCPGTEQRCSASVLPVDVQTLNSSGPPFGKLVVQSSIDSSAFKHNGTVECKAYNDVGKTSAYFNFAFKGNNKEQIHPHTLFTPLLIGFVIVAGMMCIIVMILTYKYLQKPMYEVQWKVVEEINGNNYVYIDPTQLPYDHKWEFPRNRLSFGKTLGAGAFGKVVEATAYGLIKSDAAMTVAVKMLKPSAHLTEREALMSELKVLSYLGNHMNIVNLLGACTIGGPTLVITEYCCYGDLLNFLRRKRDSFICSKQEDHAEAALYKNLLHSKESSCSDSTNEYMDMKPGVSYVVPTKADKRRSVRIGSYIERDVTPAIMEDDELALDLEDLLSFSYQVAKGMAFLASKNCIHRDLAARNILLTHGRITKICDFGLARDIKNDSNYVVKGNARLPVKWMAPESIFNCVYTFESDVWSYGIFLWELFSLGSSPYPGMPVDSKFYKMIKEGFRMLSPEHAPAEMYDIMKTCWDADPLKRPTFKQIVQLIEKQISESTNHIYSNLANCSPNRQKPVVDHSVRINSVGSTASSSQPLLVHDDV
Sequence of UniProt P42681 (whole entry, looked up): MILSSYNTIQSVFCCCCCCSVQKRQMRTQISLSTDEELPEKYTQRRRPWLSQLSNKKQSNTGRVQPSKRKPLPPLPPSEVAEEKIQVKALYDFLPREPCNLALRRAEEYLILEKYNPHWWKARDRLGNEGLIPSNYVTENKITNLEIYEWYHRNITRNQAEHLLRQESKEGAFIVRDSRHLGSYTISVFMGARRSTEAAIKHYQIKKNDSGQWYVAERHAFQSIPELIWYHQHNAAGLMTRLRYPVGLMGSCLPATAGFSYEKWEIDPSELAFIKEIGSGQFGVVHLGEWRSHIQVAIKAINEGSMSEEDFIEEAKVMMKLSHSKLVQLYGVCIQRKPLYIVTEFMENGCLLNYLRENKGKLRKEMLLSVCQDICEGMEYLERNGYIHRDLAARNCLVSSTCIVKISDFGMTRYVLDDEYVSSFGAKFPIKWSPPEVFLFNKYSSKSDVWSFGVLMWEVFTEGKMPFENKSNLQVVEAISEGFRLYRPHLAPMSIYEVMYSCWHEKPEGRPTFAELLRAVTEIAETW

Series 1
Target: Membrane-associated tyrosine- and threonine-specific cdc2-inhibitory kinase (PKMYT1, Homo sapiens, UniProt Q99640)
Sequence of UniProt Q99640 (whole entry, looked up): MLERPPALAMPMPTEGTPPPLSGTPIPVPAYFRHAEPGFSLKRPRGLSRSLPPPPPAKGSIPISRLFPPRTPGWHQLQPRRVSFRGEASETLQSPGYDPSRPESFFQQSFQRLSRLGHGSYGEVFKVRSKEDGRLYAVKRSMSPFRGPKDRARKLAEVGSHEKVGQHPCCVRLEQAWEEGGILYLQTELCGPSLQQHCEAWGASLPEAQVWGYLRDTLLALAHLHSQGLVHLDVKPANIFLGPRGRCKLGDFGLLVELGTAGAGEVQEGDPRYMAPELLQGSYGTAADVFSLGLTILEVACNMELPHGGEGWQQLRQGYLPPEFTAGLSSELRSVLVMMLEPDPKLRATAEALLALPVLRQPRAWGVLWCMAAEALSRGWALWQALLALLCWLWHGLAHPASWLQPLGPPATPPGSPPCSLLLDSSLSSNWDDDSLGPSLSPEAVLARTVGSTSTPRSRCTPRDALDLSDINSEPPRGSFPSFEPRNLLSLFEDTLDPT
Observed: binding
Method: HTRF
Tested at: 4.12 nM
| SMILES | inhibition |
| --- | --- |
| Cc1ccc(O)c(C)c1-c1cnc2[nH]c(-c3cnc(N4CCC5(CC4)CC(N4CCN(c6cc7c(cc6F)c(N6CCC(=O)NC6=O)nn7C)CC4)CO5)nc3)cc2c1C#N (racemic) | 44.2% and 43% |
| Cc1ccc(O)c(C)c1-c1cnc2[nH]c(-c3cnc(N4CCC(CN5CCN(c6c(F)cc(NC7CCC(=O)NC7=O)cc6F)CC5)CC4)nc3)cc2c1C#N (racemic) | 14.7% and 13.9% |
| Cc1ccc(O)c(C)c1-c1cnc2[nH]c(-c3cnc(N4CCC(CN5CCN(c6ccc(NC7CCC(=O)NC7=O)c(F)c6)CC5)CC4)nc3)cc2c1C#N (racemic) | 43.1% and 44.5% |
| Cc1ccc(O)c(C)c1-c1cnc2[nH]c(-c3cnc(N4CCC5(CC4)CC(N4CCN(c6ccc7c(c6)C(=O)N(C6CCC(=O)NC6=O)C7=O)CC4)CO5)nc3)cc2c1C#N (mixture of isomers) | 45.2% and 40.9% |
| Cc1ncc(-c2cc3c(N)c(-c4c(C)ccc(O)c4C)cnc3[nH]2)cn1 | -4.99% and 1.89% |
| Cc1ccc(O)c(C)c1-c1cnc2[nH]c(-c3cnc(N4CCC(CCN5CCN(c6ccc7c(c6)C(=O)N(C6CCC(=O)NC6=O)C7=O)CC5)CC4)nc3)cc2c1C#N (racemic) | 37.5% and 35.9% |

Series 2
Compound: CNc1ncc2cc(-c3cc(OC)cc(OC)c3Cl)c(=O)n(CCc3ccc(NC(=O)C(C#N)=CC(C)(C)N4CCOCC4)cc3)c2n1
Observed: kinase activity
| target | conditions | inhibition [%] |
| --- | --- | --- |
| LATS2 (Homo sapiens, UniProt Q9NRM7) | 1 µM | 2 |
| STK25 (Homo sapiens, UniProt O00506) | 1 µM | 21 |
| CAMK2B (Homo sapiens, UniProt Q13554) | 0.1 µM | 2 |
| MKNK2 (Homo sapiens, UniProt Q9HBH9) | 1 µM | 0 |
| PIM1 (Homo sapiens, UniProt P11309) | 1 µM | 0 |
| DDR2 (Homo sapiens, UniProt Q16832) | 1 µM | 6 |
| MAP4K2 (Homo sapiens, UniProt Q12851) | 0.1 µM | -2 |
| CSNK2A1 (Homo sapiens, UniProt P68400) | 1 µM | 10 |
| SIK2 (Homo sapiens, UniProt Q9H0K1) | 0.1 µM | -2 |
| TXK (Homo sapiens, UniProt P42681) | 1 µM | 2 |
| SRPK3 (Homo sapiens, UniProt Q9UPE1) | 1 µM | 0 |
| MAP4K5 (Homo sapiens, UniProt Q9Y4K4) | 0.1 µM | -3 |
| MAPK14 (Homo sapiens, UniProt Q16539) | 1 µM | 6 |
| CSK (Homo sapiens, UniProt P41240) | 1 µM | 7 |
| RPS6KA6 (Homo sapiens, UniProt Q9UK32) | 1 µM | 4 |
| MET (Homo sapiens, UniProt P08581) | 0.1 µM | 2 |
| KIT (Homo sapiens, UniProt P10721) | 1 µM | 24 |

Series 3
SMILES: O=C(O)C1(O)Oc2cc(Cl)ccc2N(Cc2ccccc2)C1=O (stereo not drawn)
| organism | test | test system | conditions | scale | inhibition |
| --- | --- | --- | --- | --- | --- |
| Alopecurus japonicus | fresh weight | – | 150 g ai/ha, pre-emergence treatment | – | 58.1% and 57.4% and 61.5% |
| Oryza sativa | fresh weight | – | soil surface spray, 150 g ai/ha, 21 days, pre-emergence crop safety | – | 1.4% and 1% |
| Arabidopsis thaliana | root length | Col-0, seedlings | 3.125 µg/mL | relative to: water control | 6.05% |
| Zea mays | fresh weight | – | soil surface spray, 150 g ai/ha, 21 days, pre-emergence crop safety | – | 4.1% and 3.8% and 3.2% |
| Arabidopsis thaliana | hypocotyl length | Col-0 | 50.0 µg/mL, 7 days, seed germination, dark | – | 36.7% |
| Arabidopsis thaliana | root length | Col-0, seedlings | 12.5 µg/mL | relative to: water control | 7.73% |
| Eclipta prostrata | fresh weight | – | 150 g ai/ha, post-emergence treatment | – | 65.3% and 61.4% and 61% |
| Abutilon theophrasti | fresh weight | – | 150 g ai/ha, pre-emergence treatment | – | 2.3% and 2.8% and 2.1% |
| Arabidopsis thaliana | root length | Col-0, seedlings | 100 µg/mL | relative to: water control | 94.9% |
| Arabidopsis thaliana | root length | Col-0 | 6.25 µg/mL, 7 days, seed germination, dark | – | 6.4% |
| Arabidopsis thaliana | hypocotyl length | Col-0 | 3.125 µg/mL, 7 days, seed germination, dark | – | 0.1% |
| Arabidopsis thaliana | root length | Col-0 | 100 µg/mL, 7 days, seed germination, dark | – | 94.9% |
| Arabidopsis thaliana | hypocotyl length | Col-0, seedlings | 3.125 µg/mL | – | -0.143% |
| Triticum aestivum | fresh weight | – | soil surface spray, 150 g ai/ha, 21 days, pre-emergence crop safety | – | 13.1% and 12.8% |

Series 4
Target: E3 ubiquitin-protein ligase NEDD4, HECT domain (Homo sapiens, UniProt P46934)
Sequence of UniProt P46934 (whole entry, looked up): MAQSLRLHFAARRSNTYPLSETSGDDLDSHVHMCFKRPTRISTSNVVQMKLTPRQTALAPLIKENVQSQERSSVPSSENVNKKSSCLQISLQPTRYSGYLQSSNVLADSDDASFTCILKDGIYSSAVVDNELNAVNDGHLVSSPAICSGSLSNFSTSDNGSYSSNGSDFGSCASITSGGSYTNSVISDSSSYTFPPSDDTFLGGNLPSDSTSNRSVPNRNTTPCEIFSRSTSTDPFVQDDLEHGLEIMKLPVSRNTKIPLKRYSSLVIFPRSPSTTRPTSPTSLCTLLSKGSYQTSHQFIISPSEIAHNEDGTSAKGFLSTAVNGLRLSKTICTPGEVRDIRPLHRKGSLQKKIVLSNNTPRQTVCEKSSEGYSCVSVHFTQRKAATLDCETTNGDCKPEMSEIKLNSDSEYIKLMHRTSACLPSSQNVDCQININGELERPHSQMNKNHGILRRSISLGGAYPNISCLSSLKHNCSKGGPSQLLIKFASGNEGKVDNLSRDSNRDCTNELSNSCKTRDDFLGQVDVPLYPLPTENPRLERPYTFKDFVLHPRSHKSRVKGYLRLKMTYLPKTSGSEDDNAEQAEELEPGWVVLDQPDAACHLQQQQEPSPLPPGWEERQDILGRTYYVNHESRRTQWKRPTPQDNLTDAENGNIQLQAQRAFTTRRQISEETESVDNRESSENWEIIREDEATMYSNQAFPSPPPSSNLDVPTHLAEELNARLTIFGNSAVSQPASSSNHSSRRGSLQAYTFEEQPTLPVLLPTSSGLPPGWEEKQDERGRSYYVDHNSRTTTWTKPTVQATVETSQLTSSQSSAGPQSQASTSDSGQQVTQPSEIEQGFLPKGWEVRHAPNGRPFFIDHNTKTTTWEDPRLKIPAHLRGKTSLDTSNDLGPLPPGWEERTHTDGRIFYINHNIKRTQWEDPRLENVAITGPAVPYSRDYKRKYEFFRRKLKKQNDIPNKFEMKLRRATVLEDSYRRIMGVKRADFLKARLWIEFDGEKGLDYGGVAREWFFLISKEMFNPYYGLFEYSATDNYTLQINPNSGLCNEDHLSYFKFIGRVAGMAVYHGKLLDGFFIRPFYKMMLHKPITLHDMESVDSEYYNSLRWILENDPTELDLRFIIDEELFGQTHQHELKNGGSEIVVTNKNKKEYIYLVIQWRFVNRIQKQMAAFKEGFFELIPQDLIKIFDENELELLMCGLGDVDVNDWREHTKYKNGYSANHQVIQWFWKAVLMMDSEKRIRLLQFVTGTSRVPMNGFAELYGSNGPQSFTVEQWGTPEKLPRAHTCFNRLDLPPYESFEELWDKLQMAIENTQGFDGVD
Observed: enzyme activity
Mode: inhibitor
Method: Ub-TR-FRET
Sample: HECT domain
Tested at: 33.33 µM
Direction: higher = more chain formation
| Structure (SMILES) | ubiquitin chain formation AUC |
| --- | --- |
| CCOC(=O)/C=C/CNCCCCN1c2cc(Cl)ccc2COc2ccccc21.O=C(O)/C=C\C(=O)O | 11900 a.u. |
| CCOC(=O)/C=C/CN(CCCCN1c2ccccc2CCc2ccc(Cl)cc21)C(C)C.O=C(O)/C=C\C(=O)O | 11700 a.u. and 11500 a.u. and 11000 a.u. and 14900 a.u. and 15800 a.u. and 14800 a.u. |
| COC(=O)CCCNCCCN1c2ccccc2CCc2ccc(Cl)cc21.COC(=O)CCCNCCCN1c2ccccc2CCc2ccc(Cl)cc21.O=C(O)/C=C/C(=O)O | 99700 a.u. and 91800 a.u. and 98500 a.u. |
| Cl.NC(=O)/C=C/CNCCCN1c2ccccc2CCc2ccc(Cl)cc21 | 100000 a.u. and 97800 a.u. and 92900 a.u. |
| CCONC(=O)/C=C/CNCCCCN1c2ccccc2CCc2ccc(Cl)cc21.O=C(O)/C=C\C(=O)O | 4920 a.u. and 5310 a.u. and 5220 a.u. and 5210 a.u. and 4850 a.u. and 5200 a.u. |
| C=CC(=O)NCCCN1c2ccccc2CCc2ccc(Cl)cc21 | 183000 a.u. and 184000 a.u. |
| CCOC(=O)/C=C/CNCCCCN1c2ccccc2COc2ccc(Cl)cc21.O=C(O)/C=C\C(=O)O | 10700 a.u. and 10300 a.u. |
| COC(=O)/C=C/C(=O)NCCCN1c2ccccc2CCc2ccc(Cl)cc21 | 151000 a.u. and 150000 a.u. and 148000 a.u. |

For quick reference, copied from above (series 1):
| SMILES | inhibition |
| --- | --- |
| Cc1ccc(O)c(C)c1-c1cnc2[nH]c(-c3cnc(N4CCC(CN5CCN(c6ccc(NC7CCC(=O)NC7=O)c(F)c6)CC5)CC4)nc3)cc2c1C#N (racemic) | 43.1% and 44.5% |
| Cc1ccc(O)c(C)c1-c1cnc2[nH]c(-c3cnc(N4CCC5(CC4)CC(N4CCN(c6cc7c(cc6F)c(N6CCC(=O)NC6=O)nn7C)CC4)CO5)nc3)cc2c1C#N (racemic) | 44.2% and 43% |
| Cc1ccc(O)c(C)c1-c1cnc2[nH]c(-c3cnc(N4CCC5(CC4)CC(N4CCN(c6ccc7c(c6)C(=O)N(C6CCC(=O)NC6=O)C7=O)CC4)CO5)nc3)cc2c1C#N (mixture of isomers) | 45.2% and 40.9% |
| Cc1ccc(O)c(C)c1-c1cnc2[nH]c(-c3cnc(N4CCC(CN5CCN(c6c(F)cc(NC7CCC(=O)NC7=O)cc6F)CC5)CC4)nc3)cc2c1C#N (racemic) | 14.7% and 13.9% |
| Cc1ncc(-c2cc3c(N)c(-c4c(C)ccc(O)c4C)cnc3[nH]2)cn1 | -4.99% and 1.89% |
| Cc1ccc(O)c(C)c1-c1cnc2[nH]c(-c3cnc(N4CCC(CCN5CCN(c6ccc7c(c6)C(=O)N(C6CCC(=O)NC6=O)C7=O)CC5)CC4)nc3)cc2c1C#N (racemic) | 37.5% and 35.9% |
